Experimental data pooled from the literature.
Every numbered part comes from another study and shows a few of its results, in no order.
UniProt O75582, sequence (whole entry, looked up): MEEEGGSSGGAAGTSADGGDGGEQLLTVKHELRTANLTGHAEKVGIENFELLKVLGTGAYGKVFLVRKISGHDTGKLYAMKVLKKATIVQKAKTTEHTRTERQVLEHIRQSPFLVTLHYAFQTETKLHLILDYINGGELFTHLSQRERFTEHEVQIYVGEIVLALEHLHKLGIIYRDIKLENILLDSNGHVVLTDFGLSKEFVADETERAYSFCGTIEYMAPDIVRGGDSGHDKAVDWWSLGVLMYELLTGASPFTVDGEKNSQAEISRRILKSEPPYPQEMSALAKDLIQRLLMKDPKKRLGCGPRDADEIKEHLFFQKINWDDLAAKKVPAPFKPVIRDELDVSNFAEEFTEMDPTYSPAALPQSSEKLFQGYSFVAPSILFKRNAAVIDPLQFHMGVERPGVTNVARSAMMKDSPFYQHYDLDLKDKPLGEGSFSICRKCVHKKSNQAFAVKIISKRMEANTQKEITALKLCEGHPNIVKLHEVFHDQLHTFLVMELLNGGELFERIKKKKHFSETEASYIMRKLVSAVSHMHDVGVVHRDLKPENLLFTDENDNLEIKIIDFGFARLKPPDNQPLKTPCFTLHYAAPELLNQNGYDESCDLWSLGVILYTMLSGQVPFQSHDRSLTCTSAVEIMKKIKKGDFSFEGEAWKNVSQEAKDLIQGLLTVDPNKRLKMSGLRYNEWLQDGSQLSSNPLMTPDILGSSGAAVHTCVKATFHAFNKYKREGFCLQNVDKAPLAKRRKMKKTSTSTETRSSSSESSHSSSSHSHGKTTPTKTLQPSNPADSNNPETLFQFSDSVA
UniProt P29322, sequence (whole entry, looked up): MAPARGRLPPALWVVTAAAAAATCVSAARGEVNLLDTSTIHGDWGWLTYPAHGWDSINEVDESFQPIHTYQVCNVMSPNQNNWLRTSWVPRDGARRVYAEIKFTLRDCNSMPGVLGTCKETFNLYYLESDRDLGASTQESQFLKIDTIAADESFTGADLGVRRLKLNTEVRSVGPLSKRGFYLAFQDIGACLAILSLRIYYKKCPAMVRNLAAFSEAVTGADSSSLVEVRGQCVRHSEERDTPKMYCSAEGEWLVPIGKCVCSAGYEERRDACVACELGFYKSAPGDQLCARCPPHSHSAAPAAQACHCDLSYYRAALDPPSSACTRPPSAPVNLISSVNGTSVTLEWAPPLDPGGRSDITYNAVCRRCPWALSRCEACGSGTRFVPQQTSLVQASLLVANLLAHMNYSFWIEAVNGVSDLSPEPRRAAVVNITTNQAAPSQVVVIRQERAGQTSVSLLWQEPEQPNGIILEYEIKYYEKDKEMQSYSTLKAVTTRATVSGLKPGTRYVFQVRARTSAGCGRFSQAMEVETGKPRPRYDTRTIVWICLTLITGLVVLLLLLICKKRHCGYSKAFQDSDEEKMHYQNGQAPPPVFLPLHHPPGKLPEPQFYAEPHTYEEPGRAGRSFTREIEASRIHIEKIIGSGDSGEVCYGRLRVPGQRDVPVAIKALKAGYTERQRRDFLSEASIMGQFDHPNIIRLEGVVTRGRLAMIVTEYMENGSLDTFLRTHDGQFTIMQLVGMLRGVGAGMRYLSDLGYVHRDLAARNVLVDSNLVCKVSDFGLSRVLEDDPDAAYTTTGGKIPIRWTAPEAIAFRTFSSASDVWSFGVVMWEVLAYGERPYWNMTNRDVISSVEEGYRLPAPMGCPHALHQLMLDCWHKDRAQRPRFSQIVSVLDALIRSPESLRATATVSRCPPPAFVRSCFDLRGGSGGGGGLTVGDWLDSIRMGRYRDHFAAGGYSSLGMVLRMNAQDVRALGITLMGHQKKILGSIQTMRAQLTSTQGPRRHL
UniProt O00444, sequence (whole entry, looked up): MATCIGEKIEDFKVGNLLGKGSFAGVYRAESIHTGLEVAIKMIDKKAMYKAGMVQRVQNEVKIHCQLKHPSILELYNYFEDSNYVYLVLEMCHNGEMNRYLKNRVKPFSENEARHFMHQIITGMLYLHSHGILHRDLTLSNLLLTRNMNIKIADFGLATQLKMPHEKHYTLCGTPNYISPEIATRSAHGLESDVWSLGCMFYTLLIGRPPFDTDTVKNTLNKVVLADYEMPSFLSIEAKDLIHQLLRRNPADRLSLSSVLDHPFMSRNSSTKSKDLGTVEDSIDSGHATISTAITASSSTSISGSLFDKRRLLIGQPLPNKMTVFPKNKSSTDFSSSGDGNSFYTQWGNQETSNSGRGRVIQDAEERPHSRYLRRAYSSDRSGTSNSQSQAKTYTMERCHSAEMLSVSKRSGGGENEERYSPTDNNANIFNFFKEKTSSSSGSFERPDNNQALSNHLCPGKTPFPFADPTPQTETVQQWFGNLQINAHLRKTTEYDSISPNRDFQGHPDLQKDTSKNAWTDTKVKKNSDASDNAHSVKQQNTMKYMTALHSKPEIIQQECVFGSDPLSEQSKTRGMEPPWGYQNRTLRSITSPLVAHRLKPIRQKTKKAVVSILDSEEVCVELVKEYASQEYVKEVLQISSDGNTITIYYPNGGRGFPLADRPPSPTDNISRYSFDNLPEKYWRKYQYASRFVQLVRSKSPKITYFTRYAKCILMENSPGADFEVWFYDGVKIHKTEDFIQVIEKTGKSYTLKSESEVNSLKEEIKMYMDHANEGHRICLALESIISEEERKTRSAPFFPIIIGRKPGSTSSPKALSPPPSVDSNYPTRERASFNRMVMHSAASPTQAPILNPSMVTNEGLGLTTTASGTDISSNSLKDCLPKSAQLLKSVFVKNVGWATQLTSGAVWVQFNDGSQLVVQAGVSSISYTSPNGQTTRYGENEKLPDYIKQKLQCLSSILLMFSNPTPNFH
UniProt Q9Y2U5, sequence (whole entry, looked up): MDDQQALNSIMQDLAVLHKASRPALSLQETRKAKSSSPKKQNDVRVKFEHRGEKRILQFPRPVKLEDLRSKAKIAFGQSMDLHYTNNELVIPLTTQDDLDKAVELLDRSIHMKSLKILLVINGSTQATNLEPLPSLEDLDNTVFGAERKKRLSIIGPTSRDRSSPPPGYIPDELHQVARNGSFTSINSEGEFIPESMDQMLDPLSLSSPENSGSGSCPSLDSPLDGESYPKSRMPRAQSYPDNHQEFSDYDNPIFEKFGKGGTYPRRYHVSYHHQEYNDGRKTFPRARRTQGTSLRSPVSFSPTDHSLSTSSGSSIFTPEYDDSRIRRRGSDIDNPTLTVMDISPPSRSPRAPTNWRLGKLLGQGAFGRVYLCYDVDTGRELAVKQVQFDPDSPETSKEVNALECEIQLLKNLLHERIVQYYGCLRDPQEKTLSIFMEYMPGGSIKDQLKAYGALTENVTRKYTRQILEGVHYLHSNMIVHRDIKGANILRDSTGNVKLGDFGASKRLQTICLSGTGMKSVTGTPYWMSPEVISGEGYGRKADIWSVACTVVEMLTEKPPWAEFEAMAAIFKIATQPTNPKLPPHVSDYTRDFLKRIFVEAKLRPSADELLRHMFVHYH
UniProt Q9P289, sequence (whole entry, looked up): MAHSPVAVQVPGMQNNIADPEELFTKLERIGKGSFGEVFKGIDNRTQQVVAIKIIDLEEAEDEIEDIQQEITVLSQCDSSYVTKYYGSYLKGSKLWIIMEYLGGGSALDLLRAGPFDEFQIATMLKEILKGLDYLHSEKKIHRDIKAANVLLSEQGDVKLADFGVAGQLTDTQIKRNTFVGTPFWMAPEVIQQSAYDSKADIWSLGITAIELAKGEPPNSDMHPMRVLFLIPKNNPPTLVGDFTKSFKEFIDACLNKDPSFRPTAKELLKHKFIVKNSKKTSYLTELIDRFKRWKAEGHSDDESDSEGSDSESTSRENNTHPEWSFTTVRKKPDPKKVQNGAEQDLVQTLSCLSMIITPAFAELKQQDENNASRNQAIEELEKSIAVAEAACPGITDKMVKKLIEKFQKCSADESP
UniProt Q6PHR2, sequence (whole entry, looked up): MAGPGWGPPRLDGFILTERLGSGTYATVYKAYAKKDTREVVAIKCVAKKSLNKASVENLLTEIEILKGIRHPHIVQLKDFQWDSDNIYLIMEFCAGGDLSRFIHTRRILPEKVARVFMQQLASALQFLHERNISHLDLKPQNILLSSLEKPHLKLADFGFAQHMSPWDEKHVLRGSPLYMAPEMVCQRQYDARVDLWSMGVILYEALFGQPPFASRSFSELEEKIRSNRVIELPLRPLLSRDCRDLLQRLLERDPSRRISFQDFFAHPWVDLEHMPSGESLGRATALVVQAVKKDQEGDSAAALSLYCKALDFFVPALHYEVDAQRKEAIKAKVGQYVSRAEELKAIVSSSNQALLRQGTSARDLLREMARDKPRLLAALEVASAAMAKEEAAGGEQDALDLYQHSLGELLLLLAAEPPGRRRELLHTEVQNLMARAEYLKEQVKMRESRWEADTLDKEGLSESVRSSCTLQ
UniProt Q13554, sequence (whole entry, looked up): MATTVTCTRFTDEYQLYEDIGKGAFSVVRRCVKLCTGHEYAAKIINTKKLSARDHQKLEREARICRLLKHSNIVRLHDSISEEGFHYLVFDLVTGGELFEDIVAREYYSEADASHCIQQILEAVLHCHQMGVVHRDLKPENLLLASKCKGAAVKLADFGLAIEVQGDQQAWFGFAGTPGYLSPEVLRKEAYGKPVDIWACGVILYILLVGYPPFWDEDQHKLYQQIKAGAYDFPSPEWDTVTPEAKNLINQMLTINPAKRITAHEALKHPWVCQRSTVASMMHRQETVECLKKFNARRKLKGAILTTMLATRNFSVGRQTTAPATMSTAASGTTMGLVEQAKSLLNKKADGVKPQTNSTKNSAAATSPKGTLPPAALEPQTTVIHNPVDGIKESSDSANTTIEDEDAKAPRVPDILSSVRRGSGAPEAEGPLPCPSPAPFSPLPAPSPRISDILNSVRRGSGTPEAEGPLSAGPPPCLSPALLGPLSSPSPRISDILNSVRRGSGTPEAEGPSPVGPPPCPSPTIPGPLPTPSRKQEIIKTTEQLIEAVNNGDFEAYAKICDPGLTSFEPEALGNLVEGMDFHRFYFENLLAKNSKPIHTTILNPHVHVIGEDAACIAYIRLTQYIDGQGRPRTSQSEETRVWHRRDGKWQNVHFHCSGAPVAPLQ

Block 1 — organism: Sarcocystis neurona; observed: parasite growth; concentration: 10 µM; setting: secondary screen
For `COc1cccc2c1C(=O)c1c(O)c3c(c(O)c1C2=O)C[C@@](O)(C(=O)CO)C[C@@H]3O[C@H]1C[C@H](N)[C@H](O)[C@H](C)O1`, the inhibition was 42.2%.
`COc1cc2nc(N3CCN(C(=O)c4ccco4)CC3)nc(N)c2cc1OC` gave an inhibition of 75%.
`CC[C@]1(O)C[C@@H]2CN(CCc3c([nH]c4ccccc34)[C@@](C(=O)OC)(c3cc4c(cc3OC)N(C)[C@H]3[C@@](O)(C(N)=O)[C@H](O)[C@]5(CC)C=CCN6CC[C@]43[C@@H]65)C2)C1` gave an inhibition of -2.9%.
For `OC(c1cc(C(F)(F)F)nc2c(C(F)(F)F)cccc12)C1CCCCN1` (stereo not shown), the inhibition was 0.9%.
With `CC(C)NCC(O)COc1ccc(CC(N)=O)cc1` (stereo not shown) the inhibition was -2.7%.
`CN1CCC(=C2c3ccccc3C=Cc3ccccc32)CC1` gave an inhibition of 3.2%.
The inhibition of `CN(C)CCCN1c2ccccc2Sc2ccc(Cl)cc21` is reported as 48.9%.
`CC[C@H](C)C(=O)O[C@H]1C[C@@H](C)C=C2C=C[C@H](C)[C@H](CC[C@@H]3C[C@@H](O)CC(=O)O3)[C@H]21` gave an inhibition of -39.7%.
For `CN(CCO)CC(O)Cn1cnc2c1c(=O)n(C)c(=O)n2C.O=C(O)c1cccnc1` (stereo not shown), the inhibition was -30.5%.
For `C[C@H]1[C@H](OC(=O)CCC(=O)O)O[C@@H]2O[C@@]3(C)CC[C@H]4[C@H](C)CC[C@@H]1[C@@]24OO3`, the inhibition was 76.3%.

Block 2 — observed: cell-free assay; technique: competition with immobilised ligand; concentration: 1 µM
Structure (SMILES): CO[C@@H](C)c1c(Nc2ccc([C@@H](N(C)C(=O)C3CCS(=O)(=O)CC3)C(F)(F)F)cc2)cnc2cc(Cl)nn12
It gave 96% for remaining binding (CAMK2B (Homo sapiens, UniProt Q13554)).
PTK6 (Homo sapiens, UniProt Q13882) — remaining binding: 100%.
For DDR2 (Homo sapiens, UniProt Q16832): remaining binding read 100%.
For EGFR (Homo sapiens, UniProt P00533, L861Q): remaining binding read 100%.
The remaining binding was 98% (Non-receptor tyrosine-protein kinase TYK2, JH1 (TYK2, Homo sapiens, UniProt P29597)).
For PLK4 (Homo sapiens, UniProt O00444): remaining binding read 100%.
The remaining binding was 82% (Ribosomal protein S6 kinase alpha-5, N-terminal kinase domain (RPS6KA5, Homo sapiens, UniProt O75582)).
For EPHA8 (Homo sapiens, UniProt P29322): remaining binding read 91%.
The remaining binding was 100% (Ribosomal protein S6 kinase alpha-6, N-terminal kinase domain (RPS6KA6, Homo sapiens, UniProt Q9UK32)).
It gave 91% for remaining binding (MAP2K5 (Homo sapiens, UniProt Q13163)).
The remaining binding was 100% (MAP3K2 (Homo sapiens, UniProt Q9Y2U5)).
It gave 100% for remaining binding (PIK3CA (Homo sapiens, UniProt P42336, Q546K)).
It gave 97% for remaining binding (ULK3 (Homo sapiens, UniProt Q6PHR2)).
For PKN2 (Homo sapiens, UniProt Q16513): remaining binding read 88%.
It gave 100% for remaining binding (STK26 (Homo sapiens, UniProt Q9P289)).

Block 3 — matrix: EL4 tumour; dose: dose not given; baseline: vehicle
SMILES: CC(=O)N[C@@H](Cc1c[nH]c2ccccc12)C(=O)N[C@@H](CCC(=O)C=[N+]=[N-])C(=O)OC(C)C
For refers to: cystathionine; mouse, EL4 tumour-bearing: “log2 fold change” read 0.0679.
For refers to: itaconate; mouse, EL4 tumour-bearing: “log2 fold change” read 0.915.
The “log2 fold change” was -0.788 (refers to: citrulline; mouse, EL4 tumour-bearing).
The “log2 fold change” was 1.22 (refers to: 3'-CMP; mouse, EL4 tumour-bearing).
The “log2 fold change” was -1.14 (refers to: 4-hydroxyglutamate; mouse, EL4 tumour-bearing).
refers to: putrescine; mouse, EL4 tumour-bearing — “log2 fold change”: 0.101.
It gave 0.225 for “log2 fold change” (refers to: methionine; mouse, EL4 tumour-bearing).
refers to: S-adenosylmethionine; Mus musculus — “log2 fold change”: -0.685.
It gave 2.24 for “log2 fold change” (refers to: cystine; mouse, EL4 tumour-bearing).
It gave 0.548 for “log2 fold change” (refers to: N-acetylalanine; mouse, EL4 tumour-bearing).

Block 4 — species: human; matrix: microsomes or S9; concentration: 2 µM; time: 0.5 h
With `CC(OC(=O)c1cc2[nH]cnc2cc1F)c1nc2ncc(Br)cc2[nH]1` (stereo not shown) the remaining compound was 40.4%.
`CCc1c2c(nc3sc(C(=O)N4CCc5cc(OC)c(OC)cc5C4)c(N)c13)CC(C)(C)CC2=O` gave a remaining compound of 33.1%.
The remaining compound of `O=C(O)c1ccc2c(c1)NC(=O)c1ccccc1S2(=O)=O` is reported as 88.5%.
`Cc1[nH]c2cccc3c2c1CCN1C(=O)OC2(CC(C)(C)NC(C)(C)C2)C31C` (stereo not shown) gave a remaining compound of 53.6%.
The remaining compound of `CS(=O)(=O)N[C@@H]1[C@@H](NC(=O)C2=NNC(=O)CC2)[C@H]2CCO[C@H]21` is reported as > 100%.
`O=C(N[C@@H]1CC[C@H]2Oc3ccccc3N[C@H]2[C@@H]1O)c1ccccn1` gave a remaining compound of 83.6%.
With `COCCOc1cc(=O)n2c(c1C(=O)Nc1cccc(OC)c1)CCOCC2` the remaining compound was 43.8%.
`COc1ccc(C2C(C(=O)N3CCN(c4ccccc4)CC3)CCC(=O)N2c2ccc3c(c2)OCO3)cc1` (stereo not shown) has a remaining compound of 27.5%.
The remaining compound of `O=C(NCc1cn2ccsc2n1)c1c[nH]c2nccc(Cl)c12` is reported as 61.5%.
`CC(C)CC(=O)NCC12CCCC=C1N(C)C(=O)CC2` (stereo not shown) has a remaining compound of 76.7%.
`Cc1cnc(C2CC2)n1C1CCN(C(=O)c2ccoc2)CC1` gave a remaining compound of > 100%.

Some of these lines once more (block 4):
`Cc1[nH]c2cccc3c2c1CCN1C(=O)OC2(CC(C)(C)NC(C)(C)C2)C31C` (stereo not shown) gave a remaining compound of 53.6%.
The remaining compound of `CS(=O)(=O)N[C@@H]1[C@@H](NC(=O)C2=NNC(=O)CC2)[C@H]2CCO[C@H]21` is reported as > 100%.
